Measurements collected from several papers.
Each numbered part is a random draw from the data of one study; scales do not carry over between parts. Positions count from the first letter of the parent shown.
Chain of UniProt O15264 (whole entry, looked up): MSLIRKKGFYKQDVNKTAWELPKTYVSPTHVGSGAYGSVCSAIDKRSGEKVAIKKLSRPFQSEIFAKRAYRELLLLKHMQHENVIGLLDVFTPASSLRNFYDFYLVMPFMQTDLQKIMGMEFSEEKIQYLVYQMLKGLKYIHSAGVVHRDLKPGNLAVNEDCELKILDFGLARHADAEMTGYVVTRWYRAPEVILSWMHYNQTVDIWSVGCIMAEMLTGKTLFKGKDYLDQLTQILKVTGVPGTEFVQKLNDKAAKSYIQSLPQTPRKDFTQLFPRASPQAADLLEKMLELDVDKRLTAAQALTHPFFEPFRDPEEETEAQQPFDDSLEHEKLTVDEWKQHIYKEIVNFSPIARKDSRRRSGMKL

Series 1 — effect on: binding; technique: phage display NGS; form: peptide; setting: panning round 2; reference: input library
Target: UDP-N-acetylglucosamine--peptide N-acetylglucosaminyltransferase 110 kDa subunit (OGT, Homo sapiens, UniProt O15294)
Construct (O15294 1-1046): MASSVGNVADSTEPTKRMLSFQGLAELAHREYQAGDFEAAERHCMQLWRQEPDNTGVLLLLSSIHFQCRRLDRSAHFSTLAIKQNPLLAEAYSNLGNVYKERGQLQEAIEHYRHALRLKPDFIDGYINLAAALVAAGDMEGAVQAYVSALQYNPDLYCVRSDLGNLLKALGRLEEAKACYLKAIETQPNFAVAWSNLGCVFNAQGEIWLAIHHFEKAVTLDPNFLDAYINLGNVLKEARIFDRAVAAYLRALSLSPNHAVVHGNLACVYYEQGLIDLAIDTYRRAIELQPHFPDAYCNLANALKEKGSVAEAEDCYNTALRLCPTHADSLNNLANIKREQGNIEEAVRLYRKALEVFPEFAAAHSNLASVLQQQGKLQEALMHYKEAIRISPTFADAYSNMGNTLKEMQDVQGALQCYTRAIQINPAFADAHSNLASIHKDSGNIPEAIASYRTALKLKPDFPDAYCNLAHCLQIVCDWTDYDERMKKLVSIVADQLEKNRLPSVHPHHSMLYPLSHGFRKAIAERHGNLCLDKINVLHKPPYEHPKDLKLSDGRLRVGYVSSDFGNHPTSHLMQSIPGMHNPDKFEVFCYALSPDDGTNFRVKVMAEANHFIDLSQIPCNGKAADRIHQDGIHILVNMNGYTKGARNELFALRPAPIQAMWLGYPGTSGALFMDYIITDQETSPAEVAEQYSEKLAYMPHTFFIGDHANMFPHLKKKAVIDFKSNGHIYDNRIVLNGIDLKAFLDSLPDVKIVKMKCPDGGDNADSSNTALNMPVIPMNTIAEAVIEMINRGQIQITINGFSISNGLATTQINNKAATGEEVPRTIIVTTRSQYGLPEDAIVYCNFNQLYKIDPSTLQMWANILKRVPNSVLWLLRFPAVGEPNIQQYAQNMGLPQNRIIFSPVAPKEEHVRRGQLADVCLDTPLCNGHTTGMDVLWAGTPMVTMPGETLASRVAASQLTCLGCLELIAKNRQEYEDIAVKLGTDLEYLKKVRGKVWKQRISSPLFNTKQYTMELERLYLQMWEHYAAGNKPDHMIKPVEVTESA
`HPFHHNYVHYLSREQ`: “minimum log2 enrichment ratio” 2.45.
For `HMPWTHHYAKPYHVG`, “minimum log2 enrichment ratio” read 3.63.
Under “minimum log2 enrichment ratio”, `QPTTSFPPKYLITYT` is recorded as 4.81.
`STYTPFYPIKFWANR`: “minimum log2 enrichment ratio” 2.66.
`SYYRHDHVPQFYNKW` — result for “minimum log2 enrichment ratio”: 1.57.
`QKPMLFLPQYIIVAN`: “minimum log2 enrichment ratio” 6.44.
`HLRTHRVDHHYYVYD` — result for “minimum log2 enrichment ratio”: 2.18.
For `DTRWVPSYQIKYSYM`, “minimum log2 enrichment ratio” read 2.35.

Series 2 — target: CCNF, cyclin fold, Cln2 fusion (human); technique: yeast growth competition, sequencing; medium: yeast; setting: strong parent motif; reference: not given; reading: higher = stronger binding
Starting sequence: viral docking peptide; KKAKRRLFTISDS; partner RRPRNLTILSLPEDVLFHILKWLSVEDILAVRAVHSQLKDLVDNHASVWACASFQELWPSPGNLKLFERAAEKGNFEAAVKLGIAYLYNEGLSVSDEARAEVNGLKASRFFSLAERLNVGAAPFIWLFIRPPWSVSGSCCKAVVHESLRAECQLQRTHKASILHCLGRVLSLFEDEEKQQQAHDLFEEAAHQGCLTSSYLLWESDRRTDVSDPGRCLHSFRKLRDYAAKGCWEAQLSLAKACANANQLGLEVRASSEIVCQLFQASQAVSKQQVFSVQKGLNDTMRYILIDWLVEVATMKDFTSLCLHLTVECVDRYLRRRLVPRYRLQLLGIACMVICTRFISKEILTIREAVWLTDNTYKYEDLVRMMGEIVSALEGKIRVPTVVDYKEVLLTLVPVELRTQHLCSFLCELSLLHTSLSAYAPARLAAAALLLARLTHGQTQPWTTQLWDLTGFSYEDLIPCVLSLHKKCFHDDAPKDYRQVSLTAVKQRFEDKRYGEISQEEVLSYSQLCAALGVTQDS
Under “normalised enrichment score”, `S11A` is recorded as 4.84.
Under “normalised enrichment score”, `K2A` is recorded as 4.51.
Under “normalised enrichment score”, `R5K F8L` is recorded as 0.165.
Under “normalised enrichment score”, `R5A` is recorded as 2.52.
Under “normalised enrichment score”, `T9A` is recorded as 4.85.
Under “normalised enrichment score”, `R5A L7A` is recorded as 0.812.
For `L7A`, “normalised enrichment score” read 1.51.
For `F8A`, “normalised enrichment score” read 1.21.

Mixed results — reference: control
For `C=C[C@H]1CN2CC[C@H]1C[C@H]2[C@H](OC(=O)OCC)c1ccnc2ccc(OC)cc12`, the parasite load was 109% (Plasmodium berghei; Huh-7, liver stage; 10 µM, 24 h).
The remaining activity of `O=C1NC(=O)c2c1c1c3ccccc3n3c1c1c2c2ccccc2n1[C@H]1CC[C@@H]3O1` is reported as 114% (MAPK13 (Homo sapiens, UniProt O15264); enzyme activity, inhibitor; 0.5 µM).

For quick reference, copied from above (mixed results):
For `C=C[C@H]1CN2CC[C@H]1C[C@H]2[C@H](OC(=O)OCC)c1ccnc2ccc(OC)cc12`, the parasite load was 109% (Plasmodium berghei; Huh-7, liver stage; 10 µM, 24 h).
The remaining activity of `O=C1NC(=O)c2c1c1c3ccccc3n3c1c1c2c2ccccc2n1[C@H]1CC[C@@H]3O1` is reported as 114% (MAPK13 (Homo sapiens, UniProt O15264); enzyme activity, inhibitor; 0.5 µM).
